Assay results of several laboratories.
Every numbered part comes from another study and shows a few of its results, in no order. Substitutions count along the parent as printed.

Series 1
Read-out: Ni-NTA bead binding
Technique: phage display NGS
Form: peptide
Matrix: phage-displayed 15-mer library
Concentration: concentration not given
With: Ni-NTA beads 20 µL
Relative to: input library
| Sequence | enrichment fold change |
| --- | --- |
| TAPFYPPAYFIQVFK | 1.87 |
| TAPFYPPAYAIQVFK | 0.785 |
| TAPFYPPAYDIQVFK | 0.355 |

Series 2
Target: CCNB3, cyclin fold, Cln2 fusion (human)
Technique: yeast growth competition, sequencing
Matrix: yeast
Notes: strong parent motif
Relative to: not given
Direction: higher = stronger binding
Starting sequence: viral docking peptide; TSVRRALFTGGSD; partner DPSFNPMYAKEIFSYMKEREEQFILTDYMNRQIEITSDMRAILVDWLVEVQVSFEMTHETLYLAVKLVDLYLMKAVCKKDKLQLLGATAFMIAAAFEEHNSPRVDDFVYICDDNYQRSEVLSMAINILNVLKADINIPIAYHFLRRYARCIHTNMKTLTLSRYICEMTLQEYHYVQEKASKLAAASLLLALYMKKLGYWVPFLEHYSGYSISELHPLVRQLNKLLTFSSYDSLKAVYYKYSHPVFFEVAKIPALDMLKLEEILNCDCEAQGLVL
| Variant | normalised enrichment score |
| --- | --- |
| TSVRRALSTGGSD [F8S] | 0.24 |
| TNVRRALFTGGSD [S2N] | 2.3 |
| TSVRRVLFTGGSD [A6V] | 3.63 |
| TSVRRALFNGGSD [T9N] | 1.49 |
| TSVIRALFTGGSD [R4I] | 0.981 |
| TSVRRADFTGGSD [L7D] | 0.0319 |
| TSVRRALFTGGND [S12N] | 2 |
| TGVRRALFTGGSD [S2G] | 2.52 |

Series 3
Target: inorganic phosphate, free oxyanion
Technique: microfluidic competitive inhibition
Matrix: in vitro, cell-free expressed
Concentration: not given
Notes: derived from inhibition constants, unchanged parent 615000 nM
Direction: lower = stronger binding
Starting sequence: PafA, mature enzyme, eGFP fusion (Elizabethkingia meningoseptica, UniProt Q9KJX5); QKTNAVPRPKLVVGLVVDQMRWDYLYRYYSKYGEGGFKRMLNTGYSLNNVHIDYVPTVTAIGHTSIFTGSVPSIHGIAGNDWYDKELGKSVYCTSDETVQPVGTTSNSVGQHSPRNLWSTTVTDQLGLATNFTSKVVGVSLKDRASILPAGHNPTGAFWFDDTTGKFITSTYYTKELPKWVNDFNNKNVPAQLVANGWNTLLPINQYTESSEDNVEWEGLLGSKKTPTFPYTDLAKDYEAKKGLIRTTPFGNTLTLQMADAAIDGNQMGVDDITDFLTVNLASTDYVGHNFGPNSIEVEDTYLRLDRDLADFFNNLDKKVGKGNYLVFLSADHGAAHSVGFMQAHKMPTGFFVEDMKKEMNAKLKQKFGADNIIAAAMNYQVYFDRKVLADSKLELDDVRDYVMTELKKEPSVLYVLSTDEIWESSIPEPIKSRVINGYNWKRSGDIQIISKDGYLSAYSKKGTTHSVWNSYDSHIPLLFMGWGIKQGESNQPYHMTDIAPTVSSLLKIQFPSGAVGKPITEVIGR
| Variant | phosphate dissociation constant [µM] |
| --- | --- |
| P411V | 671 |
| P101V | 623 |
| G463V | 198 |
| Y29V | 557 |
| Q267V | 696 |
| N107G | 786 |
| Y380V | 788 |
| D498V | 430 |

Mixed results
| Compound | target | read-out | action | concentration | relative to | endpoint | result |
| --- | --- | --- | --- | --- | --- | --- | --- |
| COC[C@H]1OC(=O)c2coc3c2[C@@]1(C)C1=C(C3=O)[C@@H]2CCC(=O)[C@@]2(C)C[C@H]1OC(C)=O | Ephrin type-B receptor 2 (EPHB2, Homo sapiens, UniProt P29323) | enzyme activity | inhibitor | 0.5 µM | control | remaining activity | 102% |
